Values quoted from earlier work that unrelated publications cite.
Compare with care: the assays were run in different laboratories. ± gives the spread as reported. Converted amounts (≈) assume the structure as drawn.
UniProt Q9H3Y6, sequence (whole entry, looked up): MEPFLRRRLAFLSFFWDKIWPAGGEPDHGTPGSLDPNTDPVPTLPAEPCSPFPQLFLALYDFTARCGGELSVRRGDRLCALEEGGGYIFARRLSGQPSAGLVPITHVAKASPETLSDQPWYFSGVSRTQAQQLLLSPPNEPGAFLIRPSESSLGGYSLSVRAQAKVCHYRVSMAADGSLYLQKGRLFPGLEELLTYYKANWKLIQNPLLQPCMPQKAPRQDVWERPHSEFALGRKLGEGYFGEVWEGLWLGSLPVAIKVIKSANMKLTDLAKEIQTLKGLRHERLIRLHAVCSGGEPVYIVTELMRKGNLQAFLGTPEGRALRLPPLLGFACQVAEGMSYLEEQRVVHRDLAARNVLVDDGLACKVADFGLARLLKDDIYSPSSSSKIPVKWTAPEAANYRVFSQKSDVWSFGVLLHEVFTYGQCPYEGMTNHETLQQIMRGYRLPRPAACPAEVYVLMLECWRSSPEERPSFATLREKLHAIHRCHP

| SMILES | tested on | test | system | conditions | how to read | measurement | result |
| --- | --- | --- | --- | --- | --- | --- | --- |
| Cn1nc(C(F)(F)F)cc1C(=O)Nc1ccc(S(=O)(=O)N2CCCCC2)cc1 | measles virus | viral yield reduction | – | – | – | EC50 | 0.014 ± 0.02 µM |
| O=C(C1CCCCC1)N1CC(=O)N2CCc3ccccc3C2C1 (centres unmarked) | Schistosoma mansoni | – | juvenile, mouse | dose not given, 37, 38 | – | antischistosomal activity | inactive |
| Cc1[nH]c(C)c(-c2ccc(OCc3cc(F)cc(F)c3)nc2)c(=O)c1Br | Plasmodium falciparum | whole cell extended time | 3D7 | 72 h | – | IC50 | 0.1 µM |
| Cl.N=C(CC(O)c1cc2c(F)cc(F)cc2c2cc(C(F)(F)F)ccc12)Nc1ccc(F)c(F)c1 (centres unmarked) | Plasmodium berghei | – | ANKA, mouse | oral, 50 mg/kg, four doses | – | cure rate | 100% |
| CC1(C)S[C@@H]2[C@H](NC(=O)[C@H](N)c3ccccc3)C(=O)N2[C@H]1C(=O)O | Enterobacter cloacae | – | clinical isolate RKI-No_210/15 | – | – | MIC | > 16 mg/L |
| N/C(CC(O)c1cc2c(F)cc(F)cc2c2cc(C(F)(F)F)ccc12)=N\c1ccc(F)cc1 (centres unmarked) | Plasmodium falciparum | parasite growth | 7G8 | – | – | IC50 | 0.003 µM |
| C#C[C@]1(CO)O[C@@H](n2cnc3c(N)nc(F)nc32)C[C@@H]1O | HIV-1 | – | treatment-naive HIV-positive humans | 1 to 30 mg, average over doses | – | viral load reduction | > 1 log |
| Oc1ccc(-c2nc(-c3ccc(OC4CCCC4)cc3)no2)cc1 | Klebsiella pneumoniae | – | ATCC 700603 | – | – | MIC | > 128 mg/L |
| O=c1c(O)c(-c2ccc(O)c(O)c2)oc2cc(O)cc(O)c12 | VZV | viral replication | – | – | – | IC50 | 12.7 µM |
| O=C(C1CCCCC1)N1CC(=O)N2CCc3ccccc3C2C1 (centres unmarked) | Schistosoma mansoni | – | juvenile worms, mouse | dose not given | – | activity against juvenile worms | inactive |
| CNC(C)C1CCC(N)C(OC2C(N)CC(N)C(OC3OCC(C)(O)C(NC)C3O)C2O)O1 (centres unmarked) | Enterobacter cloacae | – | clinical isolate RKI-No_546/13 | – | – | MIC | 4 mg/L (≈ 8.38 µM) |
| N#Cc1cc(NC(=O)[C@H]2c3ccccc3C(=O)N(CC(F)(F)F)[C@@H]2c2cccnc2)ccc1F | Plasmodium falciparum | – | 3D7 0087/N9, NSG mouse | dose not given | – | AUC at ED90 | 1.5 µM·h |
| Nc1cc(C(F)(F)F)c(-c2nc(N3CCOCC3)nc(N3CCOCC3)n2)cn1 | Tyrosine-protein kinase Srms (SRMS, Homo sapiens, UniProt Q9H3Y6) | enzyme activity | – | 10 µM | reference: untreated | remaining activity | 94% |
| N#COCCOc1ccc(Oc2ccccc2)cc1 | Trypanosoma cruzi | parasite growth | intracellular amastigotes | – | – | EC50 | > 10 µM |
| Cc1[nH]c(C)c(-c2ccc(-c3cccc(OC(F)(F)F)c3)nc2)c(=O)c1Cl | Plasmodium falciparum | whole cell extended time | 3D7 | 72 h | – | IC50 | 0.07 µM |
| CCOC(=O)C(c1c(O)ccc2ccccc12)N1CCOCC1 (centres unmarked) | Staphylococcus aureus | efflux pump inhibition | ATCC 25923 | 100 µM | reference: untreated cells | relative fluorescence index | 0.87 |

| SMILES | tested on | test | system | conditions | how to read | measurement | result |
| --- | --- | --- | --- | --- | --- | --- | --- |
| Oc1ccc(-c2nc(-c3ccc(OC4CCCC4)cc3)no2)cc1 | Lactobacillus sp. | – | HM-102 | – | – | MIC | > 128 mg/L |
| CCc1ccc(C(=O)NC(=O)c2ccccc2O)cc1 | Plasmodium falciparum | whole cell extended time | 3D7 | 72 h | – | IC50 | 0.61 µM |
| [N-]=[N+]=N[C@]1(CO)O[C@@H](n2ccc(N)nc2=O)[C@@H](F)[C@@H]1O | respiratory syncytial virus | viral replication | HEK293T | – | – | EC50 | > 100 µM |
| O=C(C1CCCCC1)N1CC(=O)N2CCc3ccccc3C2C1 (centres unmarked) | Schistosoma mansoni | – | juvenile, infected mice | dose not given | – | worm burden reduction | inactive |
| Cc1[nH]c(C)c(-c2ccc(OCCCCSc3ccncc3)cc2)c(=O)c1Br | Plasmodium falciparum | whole cell extended time | 3D7 | 72 h | – | IC50 | 0.25 µM |
| COc1ccc(-c2ccn(CC[C@](C)(C(=O)NO)S(C)(=O)=O)c(=O)c2)c(F)c1 | Pseudomonas aeruginosa | – | PAO1 | 4 × MIC | – | post-antibiotic effect | 1.26 h |
| C=C[C@]1(C)C[C@@H](OC(=O)CSC(C)(C)CNC(=O)[C@H](N)C(C)C)[C@]2(C)[C@H](C)CC[C@]3(CCC(=O)[C@H]32)[C@@H](C)[C@@H]1O | Mycoplasma gallisepticum | – | chickens | dose not given | – | target AUC24h/MIC | 56300 h |
| COc1ccc(C=C2SC(=N)N(c3ccccc3OC)C2=O)cc1 | Plasmodium falciparum | whole cell extended time | 3D7 | 72 h | – | IC50 | 0.3 µM |
| CCc1c(Cl)c(O)c(Cl)c(O)c1C(=O)O[C@H]1[C@H](O)[C@H](OC)[C@H](OC/C2=C\C=C\C[C@H](O)/C(C)=C/[C@H](CC)[C@@H](O[C@@H]3OC(C)(C)[C@@H](OC(=O)C(C)C)[C@H](O)[C@@H]3O)/C(C)=C/C(C)=C/C[C@@H]([C@@H](C)O)OC2=O)O[C@@H]1C | Lactobacillus sp. | – | HM-102 | – | – | MIC | > 32 mg/L |
| Cc1cc(O)c(-c2ccc(Sc3ccc(Cl)cc3)cc2)c(C)n1 | Plasmodium falciparum | whole cell extended time | 3D7 | 72 h | – | IC50 | 0.97 µM |
| CCOC(=O)C(c1ccc2ccccc2c1O)N1CCOCC1 (centres unmarked) | Staphylococcus aureus | efflux pump inhibition | ATCC 25923 | 100 µM | reference: untreated cells | relative fluorescence index | -0.72 |
| Cc1cnc(N2CC3(CCOCC3)C2)c(C(=O)Nc2ccc(C(=O)N3CCc4cc(C(=O)Nc5c(C)cccc5F)sc4-c4ccccc43)cc2)c1 | respiratory syncytial virus | cytopathic effect | 5 subtype B clinical isolates | – | – | median IC50 | 0.0202 mg/L |
| Cc1[nH]c(C)c(-c2ccc(C#Cc3ccc(F)cc3F)cc2)c(=O)c1Br | Plasmodium falciparum | whole cell extended time | 3D7 | 72 h | – | IC50 | 0.03 µM |
| O=C(C1CCCCC1)N1CC(=O)N2CCc3ccccc3[C@@H]2C1 | Schistosoma mansoni | – | infected mice | 200 mg/kg | reference: untreated | worm burden reduction | 98% |
| Cc1[nH]c(C)c(-c2ccc(OCCSc3ccncc3)cc2)c(=O)c1Br | Plasmodium falciparum | whole cell extended time | 3D7 | 72 h | – | IC50 | 0.39 µM |
| FC(F)(F)c1ccc(Oc2ccc(-c3noc(-c4ccc5[nH]ccc5c4)n3)cc2)cc1 | Klebsiella pneumoniae | – | ATCC 700603 | – | – | MIC | > 128 mg/L |
